Experimental data gathered from unrelated publications.
Each numbered part is a random draw from the data of one study; scales do not carry over between parts. Substitutions count along the parent as printed.

Sample 1
Cell line: yeast with cyclin D1-Cln2 chimera
Effect on: cell growth
Mode: binder
Technique: competitive growth deep sequencing
Molecule type: peptide
Concentration: concentration not given
Setting: peptide tiling library
Reading: direction not given
Under “growth enrichment score”, `PFSENVSAVQKLDFSD` is recorded as 1.33.
`DSGFCLDSPGPLDSKE`: “growth enrichment score” 1.03.
`KSKHEEEEWTDDDLVE` — result for “growth enrichment score”: 1.5.
`NSMKELNFSHLPSNSV` — result for “growth enrichment score”: 1.1.
For `TTTTSPRTPPPLTVQD`, “growth enrichment score” read 1.08.
`RRRIKLPESDSSED`: “growth enrichment score” 0.321.
For `NEGVSNAVRRSLYIRD`, “growth enrichment score” read -0.555.

Sample 2
Target: Histone acetyltransferase KAT6A, both winged helices, GST fusion (KAT6A, Homo sapiens, UniProt Q92794, residues 1-181)
Technique: protein binding microarray
Molecule type: double-stranded DNA, one strand shown
Sample: in vitro
Concentration: not given
Setting: 8-mer, flanks averaged, mean of 2 arrays, mostly near background
Reference: not given
Reading: higher = stronger binding
Construct (chain): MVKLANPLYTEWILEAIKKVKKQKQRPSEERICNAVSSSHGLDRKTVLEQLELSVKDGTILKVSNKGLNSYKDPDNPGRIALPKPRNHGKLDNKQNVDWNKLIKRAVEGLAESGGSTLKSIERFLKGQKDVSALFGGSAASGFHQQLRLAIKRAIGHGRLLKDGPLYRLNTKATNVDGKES
With `GTAGTGAA` the E-score was -0.047.
`GGGTGGAC` has an E-score of -0.0506.
For `ATAGTAAG`, the E-score was -0.146.
The E-score of `CAGGGCGG` is reported as 0.119.
`ACTTCCTC` has an E-score of -0.194.
The E-score of `AGTGCCTA` is reported as -0.211.
`GGTCTTCA` gave an E-score of -0.156.
`GGTGGCGA` has an E-score of 0.0238.
`CCATTTTC` has an E-score of -0.0979.
The E-score of `AACATTGA` is reported as 0.0792.
`TGCAAGAA` gave an E-score of -0.0494.
`AACAGGGG` has an E-score of -0.268.
`GCCCATGA` has an E-score of -0.00334.
With `CTGGTAGA` the E-score was -0.308.
`GTCTAGTA` gave an E-score of -0.0969.
For `ACTCCCTC`, the E-score was -0.196.
For `CAGGGTTA`, the E-score was -0.121.
With `GAGGGTCA` the E-score was -0.0964.
The E-score of `ATATTGCG` is reported as 0.16.
The E-score of `GAGGTCGC` is reported as 0.117.
With `GACAGGCC` the E-score was 0.0182.
`ACGCACGC` gave an E-score of 0.301.

Sample 3
Target: RNA binding protein fox-1 homolog 2, RRM domain, GST-SBP tag (RBFOX2, Homo sapiens, UniProt O43251-10, residues 100-194)
Technique: RNA Bind-n-Seq
Molecule type: RNA
Sample: in vitro
Concentration: 365 nM
Setting: natural RNA segment, single round, ends assumed
Reference: no-protein control
Reading: higher = stronger binding
Construct (chain): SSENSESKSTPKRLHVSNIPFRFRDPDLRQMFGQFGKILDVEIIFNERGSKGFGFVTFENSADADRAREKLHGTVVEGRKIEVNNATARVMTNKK
`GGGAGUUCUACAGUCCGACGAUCACUCUGCUUUGCCCAAGUGUGACAGCACUGGGGAGGAGAGACAGGAUAAAGGGCAGAUGUCAGCAAUACUAAGGGCUUCCUCAUGGGAGGGCAUGAGGCUCCACUCAUUGUGGAAUUCUCGGGUGCCAA`: “RBNS enrichment (R)” 0.394.
`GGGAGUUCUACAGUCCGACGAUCAAGCAGUCCUGGAGAUCCCAUUAUUAAUAAAACAAAAAGGCCUGCAGAGAUUCCUGACCACUGAUCAUGCGGCCAGGAAGGGGGACCAAGAGUAAACCCCAUCUUAAUUAUGGAAUUCUCGGGUGCCAA`: “RBNS enrichment (R)” 0.579.
`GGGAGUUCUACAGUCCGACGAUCGCUCUCCACGUGUGGAAGCGCAUCUGCUUUCCUUGCUGUCUGUGCAAAUGCUGAACAAGGAGACAGACACACACUAAUCCUCAGCACAGAGCUGGAAAGCUCAUUUCUGGUGGAAUUCUCGGGUGCCAA` — result for “RBNS enrichment (R)”: 0.668.
`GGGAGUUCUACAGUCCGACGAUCCCCUGGUGGCCGCUCCAACAUCACCAGCCUCGGUUGAACGUGGAUGCGCGGAGGAGCUAGCCUGAAGGAUUCUGGGAAUCAUGUCCAUCCCUUUUCCUGUCAGUGUUUUUUGGAAUUCUCGGGUGCCAA`: “RBNS enrichment (R)” 0.368.
`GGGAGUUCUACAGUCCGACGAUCAGACACUGCCGGACUCCUGCCCACAGGGGCGUGGCCUGAAGGGCGAGUGUGAACAUGGCACUGCUGUUCCCUUCCCCCUCCCUGCACCCGCCGCAGCCUGCCAUCCCAUUUGGAAUUCUCGGGUGCCAA`: “RBNS enrichment (R)” 0.767.
For `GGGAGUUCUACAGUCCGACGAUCUAUUAUGAAAGUUUUACACUUAGUAUUCAUGUUAACAUUGGGUGCAAUAACUUAGUAGUACUUGCUUAGUUAUAAAUAACUGGAUCUUUCUGCUGACAACUUAGGUUGUAUGGAAUUCUCGGGUGCCAA`, “RBNS enrichment (R)” read 0.267.
`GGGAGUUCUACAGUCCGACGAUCAGGAUGGCUGUUUAUAAUUUGGGGAGAGAUAGGGUGGGAGGCAGGGCAAUGCAGGAUCCAAAUCCUCAUCUUACUUUCCCGACCUUAAGGAUGUAGCUGCUGCUUGUCCUUGGAAUUCUCGGGUGCCAA`: “RBNS enrichment (R)” 0.652.
Under “RBNS enrichment (R)”, `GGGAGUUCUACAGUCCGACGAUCGCUGGAGUCCGGGCAGAGCUUUCUCAGUUGUAUUGCUACUCCAGACCUCACCAUAGGUUGGGGUCCCAGUAGGAAGGCUCAGGGUCUGUGCCAGCCCUGUCGGUGCUGCUUGGAAUUCUCGGGUGCCAA` is recorded as 0.462.

Sample 4
Target: Interferon regulatory factor 5, full length, phosphomimetic (IRF5, Homo sapiens, UniProt Q13568-2, residues 1-514, S451D/S453D/S456D/S462D)
Technique: protein-binding microarray
Molecule type: double-stranded DNA, one strand shown
Sample: in vitro
Concentration: 940 nM top
Setting: 60-bp whole probe
Added: salmon DNA 0.4 mg/ml
Reference: random background probes
Reading: higher = stronger binding
Shared flanks, not repeated: GCCTAGCAC … GTCTTGATTCGCTTGACGCTGCTG
`TTTGCTTTAGTCATTCACTGAGTGCTA`: “fitted relative affinity” -0.084 z-score.
For `GACGGTATCGGGTATCGGGCCGTGCTA`, “fitted relative affinity” read 5.34 z-score.
`CAGAAAATAGAAACTCGTGTTGTGCTA` — result for “fitted relative affinity”: 0.55 z-score.
`TTAGATATAAGTATCGATTAGTGCTAG`: “fitted relative affinity” 3.63 z-score.
`TTGGGTCTCGGTCTCGGTTAGTGCTAG` — result for “fitted relative affinity”: 5.07 z-score.
Under “fitted relative affinity”, `GATGGTATCGGACTGGGGACGTGCTAG` is recorded as 4 z-score.
For `GACGGTATCGGACTGGGGACGTGCTAG`, “fitted relative affinity” read 2.55 z-score.
Under “fitted relative affinity”, `GCTTTTTCCCCCCTCACGCAGTGCTAG` is recorded as 0.734 z-score.
`GACGATATCAGACGGGAGACGTGCTAG`: “fitted relative affinity” -0.437 z-score.
For `TGGAACTTAAAAGAAAGATAGTGCTAG`, “fitted relative affinity” read -0.019 z-score.
For `ATAGGTATCCTTATCCTTTAGTGCTAG`, “fitted relative affinity” read 0.303 z-score.
For `GACGTACTGCTTATCCTGACGTGCTAG`, “fitted relative affinity” read -0.0104 z-score.
For `TTAGGGTTCGGTCTCGGTTAGTGCTAG`, “fitted relative affinity” read 2.5 z-score.
For `TGTTCTTTTCTGTTGTCTGTGTGCTAG`, “fitted relative affinity” read 1.81 z-score.
`GACGGTTCCGGTTTGGGGACGTGCTAG` — result for “fitted relative affinity”: 2.78 z-score.
For `TTAGATTTCATTTCCGATTAGTGCTAG`, “fitted relative affinity” read 1.28 z-score.
Under “fitted relative affinity”, `GAATTTCCCACTTTCACTTCGTGCTAG` is recorded as 3.5 z-score.
Under “fitted relative affinity”, `TCATTTTTGGTTTCTGGACTGTGCTAG` is recorded as 3.34 z-score.
`TTACGTTCCGGTTTCGGTTAGTGCTAG` — result for “fitted relative affinity”: 10.2 z-score.

Sample 5
Target: DDIT3, bZIP domain (human)
Technique: DHFR protein complementation
Sample: yeast
Setting: single substitutions, most at no-binding floor
Reference: wild-type JUN-FOS pair
Reading: higher = stronger binding
Parent: JUN, bZIP domain (human); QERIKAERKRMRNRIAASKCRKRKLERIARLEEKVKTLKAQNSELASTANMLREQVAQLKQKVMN; partner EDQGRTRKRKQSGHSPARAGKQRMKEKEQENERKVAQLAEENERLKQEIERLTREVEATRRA
`L45I` has a binding fitness of -1.46 natural log.
The binding fitness of `T48I` is reported as 0.0183 natural log.
`V35Y` gave a binding fitness of 0.0834 natural log.
With `A46K` the binding fitness was 0.129 natural log.
`L38N` has a binding fitness of -1.47 natural log.
With `E33G` the binding fitness was -0.283 natural log.
`L52H` gave a binding fitness of -1.1 natural log.
`T37Y` has a binding fitness of 0.135 natural log.
`Q58R` gave a binding fitness of 0.0167 natural log.
`N42H` gave a binding fitness of -0.168 natural log.
With `M51S` the binding fitness was 0.0412 natural log.
`K34L` has a binding fitness of 0.0866 natural log.
The binding fitness of `A49P` is reported as -1.14 natural log.
For `R30K`, the binding fitness was -0.00174 natural log.
With `L52R` the binding fitness was -1.16 natural log.
The binding fitness of `A57N` is reported as -0.0258 natural log.
For `A46R`, the binding fitness was 0.116 natural log.
For `I28P`, the binding fitness was -0.395 natural log.
`E44V` gave a binding fitness of 0.00681 natural log.
For `T48Q`, the binding fitness was 0.109 natural log.
`N42F` gave a binding fitness of -0.941 natural log.
For `V56K`, the binding fitness was -0.34 natural log.
`S47A` gave a binding fitness of 0.158 natural log.
With `K36V` the binding fitness was -0.0154 natural log.

A few entries again (sample 1):
For `NEGVSNAVRRSLYIRD`, “growth enrichment score” read -0.555.
`DSGFCLDSPGPLDSKE`: “growth enrichment score” 1.03.
`RRRIKLPESDSSED`: “growth enrichment score” 0.321.
`KSKHEEEEWTDDDLVE` — result for “growth enrichment score”: 1.5.
For `TTTTSPRTPPPLTVQD`, “growth enrichment score” read 1.08.
`NSMKELNFSHLPSNSV` — result for “growth enrichment score”: 1.1.
